Earlier results, collected from citations in different studies.
Protocols differ between the studies behind these lines. Numbers after ± are the reported error. Values after ≈ are worked out from the molar mass of the structure shown.
Sequence of UniProt Q9Y616 (whole entry, looked up): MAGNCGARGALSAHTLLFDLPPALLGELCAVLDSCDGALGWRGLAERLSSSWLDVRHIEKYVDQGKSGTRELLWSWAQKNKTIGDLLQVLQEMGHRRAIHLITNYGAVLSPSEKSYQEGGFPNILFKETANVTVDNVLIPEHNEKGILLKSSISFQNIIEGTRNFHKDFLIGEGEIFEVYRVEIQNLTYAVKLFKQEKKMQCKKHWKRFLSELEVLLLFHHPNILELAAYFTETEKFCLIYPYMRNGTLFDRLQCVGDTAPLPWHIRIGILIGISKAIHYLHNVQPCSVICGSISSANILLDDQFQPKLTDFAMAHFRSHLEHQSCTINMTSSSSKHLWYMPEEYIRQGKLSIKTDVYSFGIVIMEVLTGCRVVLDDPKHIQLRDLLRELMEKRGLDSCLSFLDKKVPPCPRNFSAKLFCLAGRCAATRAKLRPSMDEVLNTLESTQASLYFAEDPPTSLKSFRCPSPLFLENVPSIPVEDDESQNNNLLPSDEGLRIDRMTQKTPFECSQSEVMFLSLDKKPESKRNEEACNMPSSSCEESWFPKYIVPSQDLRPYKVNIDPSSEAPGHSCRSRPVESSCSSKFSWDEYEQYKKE
Sequence of UniProt Q9UBF8 (whole entry, looked up): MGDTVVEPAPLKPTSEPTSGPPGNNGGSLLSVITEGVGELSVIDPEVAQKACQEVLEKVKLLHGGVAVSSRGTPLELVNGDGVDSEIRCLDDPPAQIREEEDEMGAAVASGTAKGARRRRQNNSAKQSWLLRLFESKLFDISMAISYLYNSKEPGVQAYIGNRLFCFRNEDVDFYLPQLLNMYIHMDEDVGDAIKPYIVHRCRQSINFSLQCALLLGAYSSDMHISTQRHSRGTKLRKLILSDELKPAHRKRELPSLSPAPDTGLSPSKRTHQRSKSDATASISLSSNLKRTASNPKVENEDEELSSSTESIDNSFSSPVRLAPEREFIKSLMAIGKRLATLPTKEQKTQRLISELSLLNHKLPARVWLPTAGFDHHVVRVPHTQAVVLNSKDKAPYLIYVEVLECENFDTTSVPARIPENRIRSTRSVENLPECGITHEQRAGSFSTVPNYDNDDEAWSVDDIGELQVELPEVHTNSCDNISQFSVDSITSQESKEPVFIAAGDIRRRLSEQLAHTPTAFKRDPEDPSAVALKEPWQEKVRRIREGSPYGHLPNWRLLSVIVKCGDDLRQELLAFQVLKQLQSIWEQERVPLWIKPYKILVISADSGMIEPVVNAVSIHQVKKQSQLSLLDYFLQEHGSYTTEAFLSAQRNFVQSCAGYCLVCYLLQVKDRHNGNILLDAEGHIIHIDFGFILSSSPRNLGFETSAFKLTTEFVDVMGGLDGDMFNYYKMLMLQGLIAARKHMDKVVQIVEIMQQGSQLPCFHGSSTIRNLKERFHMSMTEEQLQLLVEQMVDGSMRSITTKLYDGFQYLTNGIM

Cc1cc(-c2nccc3c2ccn3CC(=O)Nc2ccc(-c3cnccn3)cn2)ccn1 — Cmax (refers to: total drug; rat; 100 mg/kg/day, 14-day dose-range finding): 14.6 µM
O=C(COc1ccc(N2C(=O)[C@@H]3[C@@H]4C=C[C@@H]([C@H]5C[C@@H]45)[C@@H]3C2=O)cc1)c1cc(Cl)cc(Cl)c1 — AUC(0-last) (mouse, brain; intravenous, 5 mg/kg): 768000 ng·min/g
Cc1cc(Nc2ccc(S(F)(F)(F)(F)F)cc2)n2ncnc2n1 — kinetic solubility (PBS; pH 6.5): 71 µM
C[C@@H]1CCO[C@H]2Cn3cc(C(=O)NCc4ccc(F)cc4F)c(=O)c(O)c3C(=O)N12 — apparent clearance (CL/F) (population PK model; treatment-naive adult patients): 0.901 L/h
COc1c(Cl)cccc1Nc1c(-c2ccncc2OC[C@@H]2COCCO2)[nH]c2c1C(=O)NCC2 — treatment-related AEs incidence (patients, NSCLC, HER2-mutant, previously treated; dose not given, any grade): 96%
COCCc1ccc(OCC(O)CNC(C)C)cc1 (stereo not drawn) — hepatic clearance (human CYP2D6 extensive metabolizers): ~50 L/h
C[C@H]1COCCN1c1nc(-c2cnc(N)cc2C(F)F)nc(N2CCOCC2)n1 — GI50 (panel of 66 cancer cell lines; cell growth; panel mean): 0.433 µM
CO[C@H]1/C=C/O[C@@]2(C)Oc3c(C)c(O)c4c(O)c(c(/C=N/N5CCN(C)CC5)c(O)c4c3C2=O)NC(=O)/C(C)=C\C=C\[C@H](C)[C@H](O)[C@@H](C)[C@@H](O)[C@@H](C)[C@H](OC(C)=O)[C@@H]1C — renal clearance (human): 0.183 mL/min/kg
CC1(C)S[C@@H]2[C@H](NC(=O)[C@H](N)c3ccccc3)C(=O)N2[C@H]1C(=O)O — MIC (Pseudomonas aeruginosa; clinical isolate RKI-No_48/09): > 16 µg/mL
Nc1nc(O)c2ncn(COC(CO)CO)c2n1 — oral bioavailability (rat; 10 mg/kg): 3.6%
CC(C)[C@@H](CS(=O)(=O)C(C)C)N1C(=O)[C@@](C)(CC(=O)O)C[C@H](c2cccc(Cl)c2)[C@H]1c1ccc(Cl)cc1 — patients with related thrombocytopenia (patients with solid tumours or lymphomas; dose not given, grade ≥3, first-in-human trials): 33%
CCCC(CCC)C(=O)O — protective index (mouse; i.p., corneal kindling model): 4.2
CCCCCC(CCC)C(=O)O (stereo not drawn) — EC10 (pericardial and yolk oedema; zebrafish embryo; nominal concentration): 10 µM
CNC(=C[N+](=O)[O-])NCCSCc1ccc(CN(C)C)o1 — kinetic solubility: 79.5 µg/mL
CCCCCCCOC(=O)c1ccc(O)cc1 — logD (pH 7.4): 4.66
Cn1cnc2c(F)c(Nc3ccc(Br)cc3Cl)c(C(=O)NOCCO)cc21 — AUC, geometric mean (human, plasma; 75 mg, given alone): 4480 ng·h/mL
CN(C)C(=O)c1cc2cnc(Nc3ccc(N4CCNCC4)cn3)nc2n1C1CCCC1 — adverse event incidence (refers to: vomiting; advanced solid tumour or lymphoma patients; dose not given, 3 weeks on 1 week off, any grade; relative to: patients): 35.8%
c1ccc2c(c1)ccc1ccccc12 — Vmax (metabolism, substrate; human liver microsomes): 304 pmol/min/mg
CCCCC(C)C(=O)O (stereo not drawn) — EC10 (small eyes; zebrafish embryo; nominal concentration): > 1000 µM
CN[C@@H](C)C(=O)N[C@H]1CN(S(=O)(=O)c2cccc(S(=O)(=O)N3CC[C@H]4CC[C@@H](C(=O)NC(c5ccccc5)c5ccccc5)N4C(=O)[C@@H](NC(=O)[C@H](C)NC)C3)c2)CC[C@H]2CC[C@@H](C(=O)NC(c3ccccc3)c3ccccc3)N2C1=O — clearance (rat, plasma; dose not given): 58.3 mL/min/kg
O=C1CC[C@H](N2Cc3cc(N4CCN(CC5CCN(c6ccc([C@@H]7c8ccc(O)cc8CC[C@@H]7c7ccccc7)cc6)CC5)CC4)ccc3C2=O)C(=O)N1 — tolerability (human, ER+/HER2− advanced breast cancer; monotherapy): not toxic
c1ccc2c(c1)-c1cccc3c1c-2cc1ccccc13 — logKow (slow stirring): 6.5
CCCS(=O)(=O)Nc1ccc(F)c(C(=O)c2c[nH]c3ncc(-c4ccc(Cl)cc4)cc23)c1F — Vd (mouse; intravenous, single dose): 0.263 L/kg
CN(C)C(=N)N=C(N)N — rate constant k12 (patients with liver failure): 0.0194 min⁻¹
O=C(c1cc(Cc2n[nH]c(=O)c3ccccc23)ccc1F)N1CCN(C(=O)C2CC2)CC1 — AUC(last) (human; oral tablet, 200 mg twice daily, multiple dose): 36500 ng·h/mL
CCCCCCCCCCCCCCCCOCCCOP(=O)(O)CO[C@H](CO)Cn1ccc(N)nc1=O — intracellular half-life improvement (relative to: cidofovir): 14 fold
C=CCCC(=O)O — EC10 (pericardial and yolk oedema; zebrafish embryo; nominal concentration): 568 µM
Cc1cn([C@@H]2C[C@@H](O)[C@H](CO)O2)c(=O)[nH]c1=O — oral bioavailability (rat): 60%
C=CC(=O)N1CCC(C(=O)NCC(=O)N2CCN(c3nc(-c4cnc(N)nc4C(F)F)nc(N4CCOCC4)n3)CC2)CC1 — remaining activity (PI4KB (Homo sapiens, UniProt Q9UBF8); kinase activity; 1 µM): 100%
Nc1cc(C(F)(F)F)c(-c2nc(N3CCOCC3)nc(N3CCOCC3)n2)cn1 — remaining activity (IRAK3 (Homo sapiens, UniProt Q9Y616); enzyme activity; 10 µM; relative to: untreated): 68%
Cc1cc(=O)n(-c2ccccc2)n1C — fraction unbound (rat, plasma): 0.69
C[C@@H](O)[C@H]1C(=O)N2C(C(=O)O)=C(S[C@@H]3CN[C@H](C(=O)N(C)C)C3)[C@H](C)[C@H]12 — t_half (healthy Chinese subjects): 1.1 h
O=C(O)CN(CCN(CC(=O)O)CC(=O)O)CC(=O)O — sum of log KiH (0.15 M NaCl): 21.3
COc1cc2c(Oc3ccc4[nH]c(C)cc4c3F)ccnc2cc1OCC1(N)CC1 — AUC(0-t) (human, fasting; 5 mg): 377 ± 134 ng·h/mL
N#C[C@@]1(c2ccc3c(N)ncnn23)O[C@H](CO)[C@@H](O)[C@H]1O — Cmax (dog; oral, 5 mg/kg, solution, unadjusted NCATS data): 17.2 µM
CC(=O)CC(c1ccccc1)c1c(O)c2ccccc2oc1=O (stereo not drawn) — plasma clearance (rat): 0.139 mL/min/kg
CN(CCOc1ccc(NS(C)(=O)=O)cc1)CCc1ccc(NS(C)(=O)=O)cc1 — torsade de pointes incidence (AF patients; dose not given; relative to: patients): 3.3%
Cc1c(C#N)cccc1[C@@H](C)Nc1nnc(C)c2cnc(N3CCOCC3)cc12 — IC50 (PC-9; 3D cell viability; 14 d): 0.141 ± 0.0172 µM
N#Cc1ccc([C@H]2CCc3cncn32)c(F)c1 — renal clearance (human): 0.86 L/h
N#CCNC(=O)c1ccc(-c2ccnc(Nc3ccc(N4CCOCC4)cc3)n2)cc1 — AUC(0-inf) decrease (moderate renal impairment; dose not given): 13%
Nc1ccn([C@@H]2CS[C@H](CO)O2)c(=O)n1 — oral bioavailability (rat; 2 mg/kg): 80%
O=C(c1cccnc1-c1ccncc1)N1CCC(O)(Cc2ccccc2)CC1 — participants with TEAE (human adults; dose not given, placebo-controlled period): 71.4%
Cc1nc(NC(=O)N2CCC[C@H]2C(N)=O)sc1-c1ccnc(C(C)(C)C(F)(F)F)c1 — time to steady state (human; daily dosing): ≤ 3 days
CNC(=O)c1c(C)oc2cc(Oc3ncnc4cc(OC)c(OC)cc34)ccc12 — dose recovered (feces; 5 mg radiolabelled, time not given): ~30%
CCN1CCN(Cc2ccc(Nc3ncc(F)c(-c4cc(F)c5nc(C)n(C(C)C)c5c4)n3)nc2)CC1 — Css,max (human; 200 mg twice daily, monotherapy): 298 ng/mL
C[C@H]1[C@@H](O)O[C@@H]2O[C@@]3(C)CC[C@H]4[C@H](C)CC[C@@H]1[C@@]24OO3 — half-life (rat; intravenous, 0.02 mmol/kg DHA equivalent): 0.3 ± 0.1 h
CNC(C)C1CCC(N)C(OC2C(N)CC(N)C(OC3OCC(C)(O)C(NC)C3O)C2O)O1 (stereo not drawn) — MIC (Pseudomonas aeruginosa; clinical isolate RKI-No_696/15): 2 µg/mL (≈ 4.19 µM)
O=C(O)CN(CCN(CC(=O)O)CC(=O)O)CCN(CC(=O)O)CC(=O)O — protonation constant (log) (pH-potentiometry, refers to: logK1H; 0.1 M NaClO4; 25 °C): 10
CCc1nc(N)nc(N)c1-c1ccc(Cl)cc1 — pKa1: 7.34
CNC(=O)c1ccc(N2C(=S)N(c3ccc(C#N)c(C(F)(F)F)c3)C(=O)C2(C)C)cc1F — apparent oral clearance (prostate cancer patients; oral): 0.61 ± 0.2 L/h
CC(C)[C@H](N)C(=O)OCC(CO)OCn1cnc2c(=O)[nH]c(N)nc21 (stereo partly drawn) — oral bioavailability (rat): 92%
COc1cc(NC(=O)CCN2CCC(OC(=O)Nc3ccccc3-c3ccccc3)CC2)c(Cl)cc1CNC[C@H](O)c1ccc(O)c2[nH]c(=O)ccc12 — Tlast (human, plasma; inhaled): 10 h
N#Cc1ccc(-c2cc(=O)c3ccc4[nH]c(C(F)(F)F)nc4c3o2)cc1 — brain/plasma ratio (mouse; dose not given): ~1%
COc1ccccc1Oc1cccc(CN2CCC3(CC2)C(=O)NCN3CCc2ccccc2)c1 — EC50 (human CCR8 Y42A mutant (TM1); IP accumulation, agonist): 0.158 µM
CO[C@@H](C)Cn1c(=O)n(C)c2cnc3ccc(-c4cncc(C(C)(C)O)c4)cc3c21 — patients with related adverse event (refers to: nausea; cancer patients; dose not given, monotherapy): 36.5%
C=CC(=O)NC1CCN(c2ncc3ncnc(Nc4ccc(Oc5ccc6c(c5)ncn6C)c(C)c4)c3n2)CC1 — glucuronidation contribution to metabolism (in vitro): 13 to 25%
C[C@H](O)C(=O)C1=Nc2c(nc(N)[nH]c2=O)NC1 — time to below LLOQ (healthy human volunteers, plasma; oral, dose not given, LLOQ 0.5 ng/mL): ≤ 8 h
O=C(c1cccnc1-c1ccncc1)N1CCC(O)(Cc2ccccc2)CC1 — overall exposure (human; dose not given, fed vs fasted): no effect
Oc1ccc(C(c2ccc(O)cc2)(C(F)(F)F)C(F)(F)F)cc1 — elimination half-life (rat, plasma; dose not given): 9 to 13 h
Nc1cccc2c1C(=O)N(C1CCC(=O)NC1=O)C2=O (stereo not drawn) — peripheral neuropathy incidence (relapsed refractory multiple myeloma patients; all grades): 10%

Excerpt of the above:
COc1cc2c(Oc3ccc4[nH]c(C)cc4c3F)ccnc2cc1OCC1(N)CC1 — AUC(0-t) (human, fasting; 5 mg): 377 ± 134 ng·h/mL
O=C(c1cccnc1-c1ccncc1)N1CCC(O)(Cc2ccccc2)CC1 — participants with TEAE (human adults; dose not given, placebo-controlled period): 71.4%
CC(C)[C@H](N)C(=O)OCC(CO)OCn1cnc2c(=O)[nH]c(N)nc21 (stereo partly drawn) — oral bioavailability (rat): 92%
COc1c(Cl)cccc1Nc1c(-c2ccncc2OC[C@@H]2COCCO2)[nH]c2c1C(=O)NCC2 — treatment-related AEs incidence (patients, NSCLC, HER2-mutant, previously treated; dose not given, any grade): 96%
